Assay results from different studies.
Numbered parts are unrelated; each lists some results of a single study. Changes are numbered by the printed parent chain.

Study 1
Target: Phosphate system positive regulatory protein PHO4, full length, GST-tagged (PHO4, Saccharomyces cerevisiae, UniProt P07270, residues 1-312)
Technique: competition protein-binding microarray
Form: double-stranded DNA, one strand shown
Sample: in vitro
Concentration: 2 µM
Notes: whole 60-bp probe, lowest competitor level
Together with: Cbf1 competitor, 0.05 µM
Reading: higher = stronger binding
Target sequence (chain): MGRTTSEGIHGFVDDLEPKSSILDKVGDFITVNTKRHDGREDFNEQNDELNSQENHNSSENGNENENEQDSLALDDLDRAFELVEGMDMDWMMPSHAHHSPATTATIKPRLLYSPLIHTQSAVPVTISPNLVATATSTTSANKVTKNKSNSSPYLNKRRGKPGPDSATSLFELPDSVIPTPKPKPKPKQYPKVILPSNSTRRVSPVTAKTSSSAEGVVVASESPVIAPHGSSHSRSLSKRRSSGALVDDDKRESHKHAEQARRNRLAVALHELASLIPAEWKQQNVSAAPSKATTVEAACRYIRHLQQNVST
For `AAGATAATGCTTTCACACGTGCAAAATAAAATAGTAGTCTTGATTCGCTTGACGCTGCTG`, the fluorescence intensity was 16800 a.u.
The fluorescence intensity of `AAATTACTAAGTTGATTAGTGGGTGACGCCGTATGAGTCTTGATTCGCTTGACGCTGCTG` is reported as 3790 a.u.
The fluorescence intensity of `CGCTTTCTAAGGAGCCACGTGTAGGGGGAGCTGGTGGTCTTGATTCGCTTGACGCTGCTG` is reported as 16200 a.u.
The fluorescence intensity of `CTTCTGTAAATTTGCGCGGTGGGTGGACGCGCCCCGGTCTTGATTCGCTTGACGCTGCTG` is reported as 3980 a.u.
`AAGCTGAAAAGGCTAAACGTGCCGAGTCCAGCCAAAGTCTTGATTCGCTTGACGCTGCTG` has a fluorescence intensity of 9960 a.u.
For `CATACCCAACCTTGTCCGGTGGGTGAAGATATTTGTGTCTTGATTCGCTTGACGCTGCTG`, the fluorescence intensity was 3910 a.u.
`ACTGCCGTTGTTCATACCGTGACTCGTAGTGGCAGTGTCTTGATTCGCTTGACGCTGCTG` has a fluorescence intensity of 4370 a.u.
With `CTTCTGTAAATTTGTCACAAGACTTGACGCGCCCCGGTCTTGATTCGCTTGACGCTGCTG` the fluorescence intensity was 4120 a.u.

Study 2
Target: RNA binding protein fox-1 homolog 2, RRM domain, GST-SBP tag (RBFOX2, Homo sapiens, UniProt O43251-10, residues 100-194)
Technique: RNA Bind-n-Seq
Form: RNA
Sample: in vitro
Concentration: 365 nM
Notes: natural RNA segment, single round, ends assumed
Baseline: no-protein control
Reading: higher = stronger binding
Target sequence (chain): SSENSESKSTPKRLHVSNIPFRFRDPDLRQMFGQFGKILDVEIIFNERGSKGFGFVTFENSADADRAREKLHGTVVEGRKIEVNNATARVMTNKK
`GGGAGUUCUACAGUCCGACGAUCUUUUCCUACAUAAUGUGGUUAAAACUUGAAUUUGUGCUUCAGCUCUUCUGUACUUCUUCCUUCCUACAGGCAAAAACACAGGCUGAGACCUAUAGUUCCAUCAAAUUCUUUGGAAUUCUCGGGUGCCAA` — result for “RBNS enrichment (R)”: 0.349.
`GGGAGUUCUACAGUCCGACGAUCAUGCCUCUCUGGAAGCCCUAGGCUCCAGGUGCUAUCUCUGUGGGAAGCAGCUACCUAAUUGGCAGGCCAAGGAGGAGUGCUGUCUGUCCAAGAGGGGACCUGUGGCCAGAUGGAAUUCUCGGGUGCCAA`: “RBNS enrichment (R)” 0.291.
`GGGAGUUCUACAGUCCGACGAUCCCACUUAUUUGCAUUCUCCUUGUGGAUUUUUUGUCACCUAAGGAAAUGCAUUUGAUGAGUGCUGGAAACUUCUUAAGUGCUUUACAGUUUGUUUUCAUUGUUUGCAGCGGUGGAAUUCUCGGGUGCCAA` — result for “RBNS enrichment (R)”: 0.377.
Under “RBNS enrichment (R)”, `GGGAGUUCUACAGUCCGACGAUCGAAACCAAGAGCACAAUUCCCAUUGAGAGAAAGAUCUCUGUGCUGUAAACUAAAACAAAUUGUGCAUUCCUUCCGGGGCCAUCGUCUUUGUUUUCUUUUUUGUCUUGAAUUGGAAUUCUCGGGUGCCAA` is recorded as 0.646.
`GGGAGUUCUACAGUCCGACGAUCUAAUAUGAAGUAGAGAUUACUUUACACUACAUUGUACAUGGAGUAAUUCAACUGAAUAAAAGUGUCACGGGUAAAGCUUUUUAACGGUUAAUUUCUGUCAAACAGUAGGUUGGAAUUCUCGGGUGCCAA`: “RBNS enrichment (R)” 0.3.
`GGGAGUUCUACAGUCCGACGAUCAGGAAACCAAUUAGAUUCAAAUGUAGGAUAUUACAGGUUGGUUGAAAUCCCAUGUACAAAUAAAAUUCUAUGUCUGAAAGAUUCUUCUGUUUGAACUUAAGAAGAAUAAAUGGAAUUCUCGGGUGCCAA`: “RBNS enrichment (R)” 1.76.
Under “RBNS enrichment (R)”, `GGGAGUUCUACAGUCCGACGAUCCAGGCCUUCAGGGUUAGAUCAUCUGUCAAGUGUCACCGAUGGGGACUUCUCAUGACCAGAGGGCUCUGCACCAGCAUCCCCAAAGAGCCAAGAAGGCCACCAUGCUUUUAUGGAAUUCUCGGGUGCCAA` is recorded as 0.279.
`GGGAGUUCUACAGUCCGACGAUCGUGUUUGAAUGAAAACAACACGAAGGCUCAAUAUCACAUGGAUUUCCCAGUUUCUGUCUUUAAUAAGGCUUUCCUACAAGCCACUAUUUUCCAUGGGGCACUCACUCAGAUGGAAUUCUCGGGUGCCAA` — result for “RBNS enrichment (R)”: 1.14.

Study 3
Target: Cyclic AMP-responsive element-binding protein 1, full length (CREB1, Homo sapiens, UniProt P16220, residues 1-327)
Chain of UniProt P16220 (whole entry, looked up): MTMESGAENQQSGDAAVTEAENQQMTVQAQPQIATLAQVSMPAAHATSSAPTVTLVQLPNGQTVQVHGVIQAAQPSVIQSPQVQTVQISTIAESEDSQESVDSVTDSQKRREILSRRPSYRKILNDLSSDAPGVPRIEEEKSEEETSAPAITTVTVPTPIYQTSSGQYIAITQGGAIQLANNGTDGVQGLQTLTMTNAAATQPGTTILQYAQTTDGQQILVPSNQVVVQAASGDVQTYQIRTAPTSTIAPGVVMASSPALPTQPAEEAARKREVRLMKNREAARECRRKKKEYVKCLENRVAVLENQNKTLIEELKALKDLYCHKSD
Technique: protein-binding microarray
Form: hairpin DNA
Sample: in vitro
Concentration: not given
Notes: whole hairpin DNA, median over replicate spots
Baseline: not given
Reading: higher = stronger binding
Shared flanks, not repeated: GAGGCCG … CGGCCTCACACTC
`GATGACCGCAGCCTCCTGGCTGCGGTCATC (5mC at 30)` has a median fluorescence of 3040 a.u.
With `GATGACGTTAGCCTCCTGGCTAACGTCATC` the median fluorescence was 8200 a.u.
The median fluorescence of `GCTGACCGCAGCCTCCTGGCTGCGGTCAGC (5mC at 14 30)` is reported as 2610 a.u.
For `GCGGACGTCAGCCTCCTGGCTGACGTCCGC`, the median fluorescence was 4310 a.u.
`AATGACGTCAGCCTCCTGGCTGACGTCATT` gave a median fluorescence of 20700 a.u.
`ACGACGACGTGCCTCCTGGCACGTCGTCGT (5mC at 9 15 29 35)` gave a median fluorescence of 3390 a.u.
`GCTGCCGTCAGCCTCCTGGCTGACGGCAGC` gave a median fluorescence of 2960 a.u.
`GATGACGCGAGCCTCCTGGCTCGCGTCATC (5mC at 29)` has a median fluorescence of 6230 a.u.

Study 4
Target: NFIL3, bZIP domain (human)
Technique: DHFR protein complementation
Sample: yeast
Notes: single substitutions, most at no-binding floor
Baseline: wild-type JUN-FOS pair
Reading: higher = stronger binding
Parent: JUN, bZIP domain (human); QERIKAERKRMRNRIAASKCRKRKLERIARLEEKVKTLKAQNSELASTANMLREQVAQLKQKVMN; partner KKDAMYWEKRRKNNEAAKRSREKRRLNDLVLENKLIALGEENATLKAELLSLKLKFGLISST
The binding fitness of `L45V` is reported as -1.48 natural log.
`R30W` gave a binding fitness of -1.41 natural log.
The binding fitness of `A46Q` is reported as -1.49 natural log.
With `E44I` the binding fitness was -1.59 natural log.
With `K34D` the binding fitness was -1.49 natural log.
The binding fitness of `E54G` is reported as -1.42 natural log.
With `R30E` the binding fitness was -1.3 natural log.
With `A49G` the binding fitness was -1.46 natural log.

Study 5
Target: CCNF, cyclin fold, Cln2 fusion (human)
Technique: yeast growth competition, sequencing
Sample: yeast
Notes: strong parent motif
Baseline: not given
Reading: higher = stronger binding
Parent: viral docking peptide; KGVKRKLFAEDSS
`G2R` — result for “normalised enrichment score”: 7.71.
Under “normalised enrichment score”, `L7E` is recorded as 0.497.
`G2D` — result for “normalised enrichment score”: 7.82.
For `S12Y`, “normalised enrichment score” read 7.73.
`D11I`: “normalised enrichment score” 8.27.
`E10T` — result for “normalised enrichment score”: 7.61.
For `K6E`, “normalised enrichment score” read 6.9.
For `F8Y`, “normalised enrichment score” read 6.33.
`R5L`: “normalised enrichment score” 0.547.
For `S12Q`, “normalised enrichment score” read 7.28.
`K4I` — result for “normalised enrichment score”: 8.21.
For `A9R`, “normalised enrichment score” read 8.12.
`K4S`: “normalised enrichment score” 7.91.
Under “normalised enrichment score”, `K6I` is recorded as 6.69.
`V3C`: “normalised enrichment score” 7.08.
Under “normalised enrichment score”, `G2L` is recorded as 7.69.
For `G2Y`, “normalised enrichment score” read 8.12.
For `A9N`, “normalised enrichment score” read 7.08.
`D11Y`: “normalised enrichment score” 8.03.
Under “normalised enrichment score”, `L7P` is recorded as 0.391.
For `K4Y`, “normalised enrichment score” read 7.14.
Under “normalised enrichment score”, `G2M` is recorded as 8.09.
Under “normalised enrichment score”, `K4T` is recorded as 6.07.
Under “normalised enrichment score”, `G2I` is recorded as 7.09.
`R5M`: “normalised enrichment score” 0.633.
